Published values collected from several papers.
Every numbered part comes from another study and shows a few of its results, in no order.
UniProt P28222, sequence (whole entry, looked up): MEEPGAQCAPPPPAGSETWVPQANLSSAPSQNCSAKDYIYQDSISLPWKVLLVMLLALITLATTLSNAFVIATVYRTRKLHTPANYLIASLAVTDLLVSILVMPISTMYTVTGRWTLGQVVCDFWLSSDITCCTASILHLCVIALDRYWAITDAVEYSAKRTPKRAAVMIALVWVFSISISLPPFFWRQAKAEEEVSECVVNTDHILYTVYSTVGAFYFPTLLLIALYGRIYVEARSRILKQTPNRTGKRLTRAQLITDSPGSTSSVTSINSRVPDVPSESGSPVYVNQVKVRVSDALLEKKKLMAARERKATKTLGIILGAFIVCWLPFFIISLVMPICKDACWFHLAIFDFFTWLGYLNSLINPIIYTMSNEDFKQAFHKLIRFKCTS
UniProt P14416, sequence (whole entry, looked up): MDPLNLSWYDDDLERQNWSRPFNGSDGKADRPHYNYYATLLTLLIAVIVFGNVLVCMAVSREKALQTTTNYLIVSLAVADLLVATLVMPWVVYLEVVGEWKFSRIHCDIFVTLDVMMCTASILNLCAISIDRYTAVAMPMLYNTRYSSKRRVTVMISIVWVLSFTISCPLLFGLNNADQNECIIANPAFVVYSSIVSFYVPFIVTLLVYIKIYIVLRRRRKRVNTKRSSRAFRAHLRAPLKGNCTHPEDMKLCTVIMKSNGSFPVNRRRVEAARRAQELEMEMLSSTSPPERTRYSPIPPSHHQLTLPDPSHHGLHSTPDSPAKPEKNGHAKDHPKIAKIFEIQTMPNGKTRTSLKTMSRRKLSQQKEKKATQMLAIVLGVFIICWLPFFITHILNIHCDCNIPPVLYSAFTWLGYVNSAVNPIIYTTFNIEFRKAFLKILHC
UniProt P35462, sequence (whole entry, looked up): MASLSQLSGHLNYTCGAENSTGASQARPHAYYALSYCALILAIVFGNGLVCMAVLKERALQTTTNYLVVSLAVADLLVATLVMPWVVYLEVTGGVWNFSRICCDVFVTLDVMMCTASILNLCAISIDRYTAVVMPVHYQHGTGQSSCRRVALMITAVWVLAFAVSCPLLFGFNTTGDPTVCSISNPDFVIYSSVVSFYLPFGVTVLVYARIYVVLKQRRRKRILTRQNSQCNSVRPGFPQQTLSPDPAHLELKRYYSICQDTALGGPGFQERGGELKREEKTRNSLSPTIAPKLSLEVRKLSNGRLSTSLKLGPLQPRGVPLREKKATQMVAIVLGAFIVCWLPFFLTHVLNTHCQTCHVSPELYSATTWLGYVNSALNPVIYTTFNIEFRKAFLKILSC
UniProt P13945, sequence (whole entry, looked up): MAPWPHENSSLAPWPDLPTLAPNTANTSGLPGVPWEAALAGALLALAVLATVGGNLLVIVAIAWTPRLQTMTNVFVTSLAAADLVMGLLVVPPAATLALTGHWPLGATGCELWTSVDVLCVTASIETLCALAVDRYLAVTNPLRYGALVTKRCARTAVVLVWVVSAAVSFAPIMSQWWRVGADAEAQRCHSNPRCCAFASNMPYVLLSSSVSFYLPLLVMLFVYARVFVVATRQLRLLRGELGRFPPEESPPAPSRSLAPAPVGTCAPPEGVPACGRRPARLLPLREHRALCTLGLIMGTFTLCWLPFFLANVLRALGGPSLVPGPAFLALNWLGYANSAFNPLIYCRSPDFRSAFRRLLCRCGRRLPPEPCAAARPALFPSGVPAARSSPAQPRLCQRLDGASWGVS
UniProt P28566, sequence (whole entry, looked up): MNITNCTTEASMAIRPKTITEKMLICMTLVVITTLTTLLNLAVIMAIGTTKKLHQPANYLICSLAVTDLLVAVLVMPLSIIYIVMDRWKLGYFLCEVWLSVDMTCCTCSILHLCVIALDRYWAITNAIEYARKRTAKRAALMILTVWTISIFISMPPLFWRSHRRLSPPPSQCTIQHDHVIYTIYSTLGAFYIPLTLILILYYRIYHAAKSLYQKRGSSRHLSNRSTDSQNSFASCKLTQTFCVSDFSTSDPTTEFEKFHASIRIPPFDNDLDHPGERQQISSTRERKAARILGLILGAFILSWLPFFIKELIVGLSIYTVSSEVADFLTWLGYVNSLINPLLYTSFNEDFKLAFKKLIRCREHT

Block 1 — concentration: 10 µM
Structure (SMILES): Cc1cc2c(-c3ccco3)cnc(N[C@H]3CCN(C)C[C@@H]3C(=O)NC3CCCCC3)c2[nH]c1=O
target | test | inhibition [%]
ADRA1A (Homo sapiens, UniProt P35348) | ligand displacement | 10.1
HRH3 (Homo sapiens, UniProt Q9Y5N1) | ligand displacement | -2.09
HTR1E (Homo sapiens, UniProt P28566) | cell-free assay | 9.79
HTR1D (Homo sapiens, UniProt P28221) | cell-free assay | 33.1
ADRB3 (Homo sapiens, UniProt P13945) | ligand displacement | 35.1
DRD2 (Homo sapiens, UniProt P14416) | ligand displacement | -10.9
ADRA2B (Homo sapiens, UniProt P18089) | ligand displacement | 28.5
ADRB1 (Homo sapiens, UniProt P08588) | ligand displacement | 2.98
CHRM4 (Homo sapiens, UniProt P08173) | ligand displacement | -3
HRH2 (Homo sapiens, UniProt P25021) | ligand displacement | 21.6
DRD1 (Homo sapiens, UniProt P21728) | ligand displacement | 21.2
DRD3 (Homo sapiens, UniProt P35462) | ligand displacement | 15.5
HTR1B (Homo sapiens, UniProt P28222) | binding, radioligand binding | 1.93

Block 2 — observed: enzyme activity; action: inhibitor; concentration: 77 µM; baseline: untreated
Target: DNA polymerase theta, ATPase domain (POLQ, Homo sapiens, UniProt O75417)
UniProt O75417, sequence (whole entry, unmodified, looked up): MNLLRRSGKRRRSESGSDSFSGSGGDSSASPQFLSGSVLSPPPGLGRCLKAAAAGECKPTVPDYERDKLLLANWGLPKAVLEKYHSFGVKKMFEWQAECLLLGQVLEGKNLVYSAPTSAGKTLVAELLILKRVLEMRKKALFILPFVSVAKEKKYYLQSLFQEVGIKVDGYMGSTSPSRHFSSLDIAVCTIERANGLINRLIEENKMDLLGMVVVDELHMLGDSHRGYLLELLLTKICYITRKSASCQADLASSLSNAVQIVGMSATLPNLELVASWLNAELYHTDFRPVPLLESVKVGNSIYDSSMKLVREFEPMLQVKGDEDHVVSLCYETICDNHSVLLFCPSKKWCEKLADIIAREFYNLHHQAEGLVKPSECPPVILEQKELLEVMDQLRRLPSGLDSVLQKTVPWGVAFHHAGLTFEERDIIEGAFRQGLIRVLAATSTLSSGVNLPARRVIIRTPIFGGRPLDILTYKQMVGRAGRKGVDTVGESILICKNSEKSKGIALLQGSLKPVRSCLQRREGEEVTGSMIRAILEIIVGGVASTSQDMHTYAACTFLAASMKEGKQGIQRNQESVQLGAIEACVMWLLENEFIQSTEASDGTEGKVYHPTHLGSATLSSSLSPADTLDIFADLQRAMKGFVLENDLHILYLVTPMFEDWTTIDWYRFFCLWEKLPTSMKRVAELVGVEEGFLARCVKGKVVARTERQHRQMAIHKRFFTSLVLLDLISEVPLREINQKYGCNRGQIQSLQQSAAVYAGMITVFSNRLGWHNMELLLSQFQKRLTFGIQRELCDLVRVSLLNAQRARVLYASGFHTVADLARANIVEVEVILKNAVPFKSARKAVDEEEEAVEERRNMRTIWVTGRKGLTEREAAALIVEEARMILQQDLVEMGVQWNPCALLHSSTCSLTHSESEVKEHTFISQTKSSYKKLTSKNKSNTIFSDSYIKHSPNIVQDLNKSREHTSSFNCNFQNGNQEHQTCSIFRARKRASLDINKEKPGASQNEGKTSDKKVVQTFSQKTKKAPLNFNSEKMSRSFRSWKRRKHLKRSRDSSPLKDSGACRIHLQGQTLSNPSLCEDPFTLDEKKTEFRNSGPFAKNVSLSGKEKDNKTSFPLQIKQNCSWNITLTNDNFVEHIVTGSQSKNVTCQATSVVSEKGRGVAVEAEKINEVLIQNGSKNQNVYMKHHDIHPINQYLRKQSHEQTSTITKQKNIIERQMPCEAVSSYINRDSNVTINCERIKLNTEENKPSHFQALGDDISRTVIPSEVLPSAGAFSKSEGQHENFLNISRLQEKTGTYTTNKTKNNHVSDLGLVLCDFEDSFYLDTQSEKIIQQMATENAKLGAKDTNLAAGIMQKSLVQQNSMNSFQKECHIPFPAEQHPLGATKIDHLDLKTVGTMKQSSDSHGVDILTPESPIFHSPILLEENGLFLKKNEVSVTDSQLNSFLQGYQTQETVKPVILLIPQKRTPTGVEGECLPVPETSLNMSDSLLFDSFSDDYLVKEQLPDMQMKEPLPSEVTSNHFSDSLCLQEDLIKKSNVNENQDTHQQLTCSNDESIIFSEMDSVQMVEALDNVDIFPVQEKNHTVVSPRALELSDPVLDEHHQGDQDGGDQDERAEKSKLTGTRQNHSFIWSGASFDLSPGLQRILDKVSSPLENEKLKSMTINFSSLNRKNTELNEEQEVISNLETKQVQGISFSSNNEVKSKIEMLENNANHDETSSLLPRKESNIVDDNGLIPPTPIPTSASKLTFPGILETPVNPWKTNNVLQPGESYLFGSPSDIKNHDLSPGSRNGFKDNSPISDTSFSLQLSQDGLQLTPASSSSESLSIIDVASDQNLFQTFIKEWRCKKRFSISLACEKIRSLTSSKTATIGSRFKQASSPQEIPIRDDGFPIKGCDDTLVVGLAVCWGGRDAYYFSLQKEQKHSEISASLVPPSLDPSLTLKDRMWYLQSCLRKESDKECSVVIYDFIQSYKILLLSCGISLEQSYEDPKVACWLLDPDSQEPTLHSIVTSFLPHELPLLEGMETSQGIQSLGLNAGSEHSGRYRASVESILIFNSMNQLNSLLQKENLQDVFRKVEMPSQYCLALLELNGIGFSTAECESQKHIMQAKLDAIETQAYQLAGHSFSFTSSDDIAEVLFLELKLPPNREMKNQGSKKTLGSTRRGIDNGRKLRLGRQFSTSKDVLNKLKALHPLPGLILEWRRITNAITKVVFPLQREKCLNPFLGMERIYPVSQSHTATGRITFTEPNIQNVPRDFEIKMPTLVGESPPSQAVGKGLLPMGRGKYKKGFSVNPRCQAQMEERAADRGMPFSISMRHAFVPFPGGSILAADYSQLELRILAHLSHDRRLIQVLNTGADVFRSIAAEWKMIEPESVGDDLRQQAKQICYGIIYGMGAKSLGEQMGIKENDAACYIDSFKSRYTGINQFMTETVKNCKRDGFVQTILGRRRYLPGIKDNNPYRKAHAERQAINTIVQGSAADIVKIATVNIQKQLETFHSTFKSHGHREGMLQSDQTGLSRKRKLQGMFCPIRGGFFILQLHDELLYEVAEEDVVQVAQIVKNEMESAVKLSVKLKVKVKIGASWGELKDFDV
Structure (SMILES) | remaining activity
CC1CC(OC(=O)c2ccccc2O)CC(C)(C)C1 (stereo not shown) | 102%
COc1ccc(-c2oc3c(CC=C(C)C)c(O[C@@H]4O[C@H](CO)[C@@H](O)[C@H](O)[C@H]4O)cc(O)c3c(=O)c2O[C@@H]2O[C@@H](C)[C@H](O)[C@@H](O)[C@H]2O)cc1 | 94.6%
O=c1ncccn1[C@@H]1O[C@H](CO)[C@@H](O)[C@H]1O | 93%
Nc1[nH]nc2nnc(-c3c(-c4ccccc4)nn4ccccc34)cc12 | 105%
Nc1cc(C(F)(F)F)c(-c2cc(N3CCOCC3)nc(N3CCOCC3)n2)cn1 | 101%
CC(/C=C/C(=O)NO)=C\[C@@H](C)C(=O)c1ccc(N(C)C)cc1 | 101%
CN(C)CCCSC(=N)N | 102%
Cn1cc(-c2cnn3c(N)c(Br)c([C@@H]4CCCNC4)nc23)cn1 | 94.9%

Block 3 — species: human; matrix: microsomes or S9; concentration: 2 µM; time: 0.5 h
SMILES | remaining compound [%]
O=c1[nH]cnc2c1sc1nc(-c3ccccc3)cc(-c3ccccc3)c12 | 74
CCCc1noc2c1C(=O)CC(c1c(C)cc(C)cc1C)C2 (stereo not shown) | 54.2
CNS(=O)(=O)c1ccc2c(c1)CCN2C(C)=O | > 99
O=C(NC1CCCC1)N1Cc2c(sc3c2CCCC3)-n2cccc2C1c1cccc(F)c1 (stereo not shown) | 3.02
N[C@@H](CC(=O)N1CCN(C(=O)OCc2ccccc2)CCN1C(=O)c1ccccc1)Cc1cc(F)c(F)cc1F | 49
CCNC(=O)c1cc(S(=O)(=O)NC(C(=O)O)C(C)C)cs1 (stereo not shown) | > 99
COc1ccc(-c2c(-c3ccccc3)nn(-c3ccc(C)cc3)c2N)cc1OC | 74
Cc1c(O)ccc2c1oc1c(CC(C)C)c3c(O)nn(C(C)C)c3nc12 | 82.2
CCOc1cc(CNCCO)cc(Br)c1OC(C)C | 0

Block 4 — observed: enzyme activity; action: inhibitor; concentration: 10 µM
Target: Calcium/calmodulin-dependent protein kinase type II subunit alpha (CAMK2A, Homo sapiens, UniProt Q9UQM7)
UniProt Q9UQM7, sequence (whole entry, looked up): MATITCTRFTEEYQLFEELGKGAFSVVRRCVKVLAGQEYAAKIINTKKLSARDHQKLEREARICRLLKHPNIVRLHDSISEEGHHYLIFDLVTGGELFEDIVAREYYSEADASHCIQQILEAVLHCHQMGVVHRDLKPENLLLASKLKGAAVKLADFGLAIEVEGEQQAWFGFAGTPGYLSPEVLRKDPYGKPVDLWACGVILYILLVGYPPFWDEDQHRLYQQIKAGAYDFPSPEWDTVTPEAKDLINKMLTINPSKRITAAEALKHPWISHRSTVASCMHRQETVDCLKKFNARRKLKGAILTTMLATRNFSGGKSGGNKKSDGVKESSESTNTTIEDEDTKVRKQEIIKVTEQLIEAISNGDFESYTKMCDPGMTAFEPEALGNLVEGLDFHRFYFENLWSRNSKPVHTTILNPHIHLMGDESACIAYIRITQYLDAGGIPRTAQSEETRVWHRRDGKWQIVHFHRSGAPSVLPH
SMILES | inhibition
O=C(O)c1cc(=O)c2c(OCC(O)COc3cccc4oc(C(=O)O)cc(=O)c34)cccc2o1 | 1%
O=C1NCN(c2ccccc2)C12CCN(CCCC(c1ccc(F)cc1)c1ccc(F)cc1)CC2 | -1%
CN=C(NC)NCCC[C@H](N)C(=O)O | 24%
COc1c(-c2ccccc2)oc2ccccc2c1=O | -3%
O=c1ccc2c(O)cc(O)cc2o1 | -22%
COc1cc(O)c(C(=O)/C=C/c2ccccc2)c(O)c1 | 19%
N[C@@H](Cc1c[nH]c2ccccc12)C(=O)O | -3%
O=c1c(O)c(-c2ccc(O)c(O)c2)oc2cc(O[C@@H]3O[C@H](CO)[C@@H](O)[C@H](O)[C@H]3O)cc(O)c12 | -21%
NC(=O)CCC(N)C(=O)O (racemic) | 31%
CCCCCCCCCC=O | 33%

Excerpt of the above (block 1):
target | test | inhibition [%]
ADRB3 (Homo sapiens, UniProt P13945) | ligand displacement | 35.1
HTR1B (Homo sapiens, UniProt P28222) | binding, radioligand binding | 1.93
DRD2 (Homo sapiens, UniProt P14416) | ligand displacement | -10.9
